Assay results pooled from the literature.
Lines come from different studies, so protocols differ. “And” joins repeats or separate records; there may be more than shown. ± marks the error that the study gave.

The SUV of `O=C(Nc1cnccc1-c1ccc([18F])nc1)c1ccnc(NC(=O)C2CC2)c1` is reported as 5.47 (mice, transgenic, GSK-3β, early-stage, urine; intravenous, dose not given, 120 min).
For `CN[C@H](CC(C)C)C(=O)N[C@H]1C(=O)N[C@@H](CC(N)=O)C(=O)N[C@H]2C(=O)N[C@H]3C(=O)N[C@H](C(=O)N[C@H](C(=O)N[C@H](CCCNC(=N)N)C(N)=O)c4cc(O)cc(O)c4-c4cc3ccc4O)[C@H](O)c3ccc(c(Cl)c3)Oc3cc2cc(c3O[C@@H]2O[C@H](CO)[C@@H](O)[C@H](O)[C@H]2O[C@H]2C[C@](C)(N)[C@H](O)[C@H](C)O2)Oc2ccc(cc2Cl)[C@H]1O`, the Cmax was 58600 ng/mL (female CD-1 mouse, plasma; intravenous, 25 mg/kg, single dose).
With `O=C(OC(C(F)(F)F)C(F)(F)F)N1CCC(CNS(=O)(=O)c2ccc(Cl)cc2)CC1` the Tlast was 8 h (CB17 SCID mice, male, brain; oral, 10 mg/kg).
For `CS(=O)(=O)c1cc(Cl)cc(-c2cc(Cl)c(Cl)cc2Cl)c1Cl`, “milk fat partition ratio” read 241 (cow whole milk; 100 nM; relative to: milk fat over skim milk).
`Cc1[nH]nc2c1N=C(c1ccccc1Cl)c1cnc(N3CCOCC3)cc1N2` gave a fraction unbound of 0.0332 (monkey, plasma).
Under “Tmax at second steady-state dose”, `CN1CCC[C@]1(C)/C=C/S(=O)(=O)NC(=O)Nc1c2c(cc3c1C(O)CC3)CCC2` (some centres unmarked) is recorded as 4 h (human, plasma; oral, 50 mg twice daily of parent drug, day 14, metabolite of dosed drug).
With `C/C(N)=N/C(=N\S(=O)(=O)c1ccc(C(F)(F)F)cc1)N1C[C@H](c2ccccc2)C(c2ccc(Cl)cc2)=N1` the fraction unbound was 0.0008 (monkey, plasma).
`COCC1CN(C2CCN(c3cc(OC)c(Nc4ncc(Br)c(Nc5ccc6c(c5P(C)(C)=O)OCCO6)n4)cc3C)CC2)C1` gave an AUC of 7230 ng·h/mL (human, plasma; oral, 30 mg, multiple doses, patients).
`CC[C@H](C)[C@@H]1NC(=O)[C@H](Cc2ccc(O)cc2)NC(=O)CCCSC[C@@H](C(=O)N(CC(=O)N[C@@H](CC(C)C)C(=O)NCC(N)=O)Cc2ccc(F)cc2)NC(=O)[C@H](CC(N)=O)NC(=O)[C@H](CCC(N)=O)NC1=O`: “serious adverse events” 0% (human; intranasal, 50 µg repeated doses).
With `C=CC(=O)Nc1cc(Nc2nccc(-c3cn(C4CC4)c4ccccc34)n2)c(OC)cc1N(C)CCNC` the relative error was -0.9% (autosampler stability; rat plasma; 80 ng/mL, 4 h, 10 °C; relative to: nominal concentration).
For `C=C(NC(=O)c1csc(-c2nc3c(cc2O)-c2nc(cs2)C(=O)NC(C(C)O)C(=O)NC(=C(C)OC)c2nc(cs2)C(=O)NC2c4nc(cs4)C(=O)NC(COC(=O)c4c5c6c(cccc6n4O)COC(=O)C(OC4CC(C)(O)C(N(C)C)C(C)O4)C2OC5)c2nc-3cs2)n1)C(N)=O` (centres unmarked), the Tmax was 1.15 h (cynomolgus monkey, both sexes, plasma; intravenous infusion, 1.5 mg/kg twice daily, 0 to 30 h).
The recovery of `C=CC(=O)Nc1cc(Nc2nccc(-c3c[nH]c4ccccc34)n2)c(OC)cc1N(C)CCN(C)C` is reported as 101% (storage stability; human dried blood spots; 5 h, on ice, high QC level).
The body weight of `O=C(NS(=O)(=O)c1cccs1)c1cc2ccccc2n1Cc1ccc(Br)c2ccccc12` is reported as 30.1 g and 32.6 g and 25 g and 28.9 g and 29.5 g and 29.4 g (KM mouse, chronic hyperuricaemia model; dose not given, day 10).
For `COc1ccnc(C(=O)N[C@H]2COC(=O)[C@H](Cc3ccccc3)[C@@H](OC(=O)C(C)C)[C@H](C)OC2=O)c1O`, the DT50 was 7.68 days (aerobic dark soil incubation; clay loam soil; 20 °C, modelling endpoint).
The fold change of `CC(C)OCCOCc1ccc(OCC(O)CN(N=O)C(C)C)cc1` (centres unmarked) is reported as 1.45 (duplex sequencing, measured: mutation frequency; NMRI mouse, liver; oral, 98.0 mg/kg/day, 4 weeks; relative to: vehicle).
`C=Cc1c(C)c2cc3nc(c(CC(=O)OCCOCCOCCOC)c4[nH]c(cc5nc(cc1[nH]2)C(C)=C5CC)c(C)c4C(=O)OCCOCCOCCOC)[C@@H](CCC(=O)OCCOCCOCCOC)[C@@H]3C` has a compound loss of 81% (LC-MS; methanol-water 9:1; 1 h, pH 2.0).
For `COc1cccc(OC)c1-c1cc(C(=O)NC2(C(=O)O)C3CC4CC(C3)CC2C4)nn1-c1ccc(C(=O)N(C)CCOCCOCCN(C)C(=O)[C@H](CCCCNC(=O)[C@H](CC(C)C)NC(=O)C2OC2C(=O)O)NC(=O)CN2CCN(CC(=O)[O-])CCN(CC(=O)[O-])CCN(CC(=O)[O-])CC2)cc1C(C)C.[177Lu+3]` (mixture of isomers), the tissue uptake was 1.78 %ID/g (mouse, HT-29 xenograft, liver; 4 h post injection).
With `[123I]c1ccc2nc(-c3ccc(-n4ccnn4)nc3)cn2c1` the tracer uptake was 0.618 %ID/g (male Wistar rat, liver; intravenous, 4 MBq, 1 h).
`O=C(Nc1cnccc1-c1ccc([18F])cc1)c1ccnc(NC(=O)C2CC2)c1` gave an SUV of 0.45 (ex vivo gamma counting; GSK-3β transgenic mice, late-stage, spleen; intravenous, 120 min, mean, P-gp inhibitor pretreatment, with: tariquidar 15 mg/kg iv).
With `CN(O)C(=O)CCC(=O)NCCCN(CCCCN(CCCNC(=O)CCC(=O)N(C)O)C(=O)CCC(=O)N(C)O)C(=O)CCC(=O)N(C)O.[89Zr]` the intact complex was 98.7 ± 0.6% (radio-TLC; aqueous buffer; 1 d, pH 7, 37 °C, 89Zr-labelled complex, with: DTPA 100-fold excess).
`[18F]CCn1cc(COc2ccc(-c3nncnn3)cc2)nn1` gave a tumour uptake of 2.7 ± 0.4 %ID/g (LS174T xenograft, BALB/c nude mouse, tumour; intravenous, 1 h, with: CC49-TCO 72 h before).
Under “relative change of HPLC peak area”, `C[C@H](C(=O)O)c1ccc(-c2ccccc2)c(F)c1` is recorded as 1.1% (HPLC; solution; concentration not given, 12 h, room temperature).
For `Cc1cccc(Cn2ncc3c4cc(F)c(CN(C)C)cc4n(C)c3c2=O)n1`, plasma concentration read “not detected” (Dutch-belted rabbit, plasma; intravitreal, 100 µM vitreous, 1.00 days).
`CCc1cnc(NC(=O)c2cc(S(=O)(=O)N3CCOCC3)ccc2N(C)C2CCCC2)s1` gave a GGT of 1 IU/L (mouse, serum; 10 mg/kg, 3 doses).
Under “Tmax at first steady-state dose”, `CN1CCC[C@]1(C)/C=C/S(=O)(=O)NC(=O)Nc1c2c(cc3c1CCC3)CC=C2` is recorded as 2.5 h (human, plasma; oral, 12.5 mg twice daily of parent drug, day 14, metabolite of dosed drug).
`CC(CCC(=O)NCC(=O)O)C1CCC2C3CCC4CC(OC5OC(C(=O)O)C(O)C(O)C5O)CCC4(C)C3CC(O)C12C` (centres unmarked) gave a Cmin of 0.039 ± 0.0114 µM (human, plasma; baseline).
With `CN(CCCO)Cc1ccc(-c2noc(-c3ccc(OCC[18F])c(C(F)(F)F)c3)n2)cc1F` the tissue uptake was 1.41 ± 0.1 %ID/g (Sprague-Dawley rats, male, heart; 5 min post-injection).
For `COc1cccc(OC)c1-c1cc(C(=O)NC2(C(=O)O)C3CC4CC(C3)CC2C4)nn1-c1ccc(C(=O)NCCNC(=O)[C@H](CCCCNC(=O)[C@H](CC(C)C)NC(=O)C2OC2C(=O)O)NC(=O)CN2CCN(CC(=O)[O-])CCN(CC(=O)[O-])CCN(CC(=O)[O-])CC2)cc1C(C)C.[177Lu+3]` (mixture of isomers), the tumour-to-heart ratio was 6.48 (mouse, HT-29 xenograft; 4 h post injection, biodistribution; relative to: tumour over heart uptake).
Under “cumulative recovery of radioactivity”, `Cc1cc(-c2ccc(C(=O)[C@@H]3CCCC[C@H]3C(=O)Nc3cnn4c3C(=O)NCC4)cc2)[nH]n1` is recorded as 85.4% and 82.1% and 74.4% and 76.8% and 75.8% and 81.3% (human, faeces; oral, 200 mg; relative to: dose).
For `CCCC[C@H](NC(=O)CNC(=O)CNC(=O)[C@H](CCCCNC(=O)C(C)c1ccc(CC(C)C)cc1)NC(=O)CN1CCN(CC(=O)O)CCN(CC(=O)O)CCN(CC(=O)O)CC1)C(=O)N[C@H]1CC(=O)NCCCC[C@@H](C(N)=O)NC(=O)[C@H](Cc2c[nH]c3ccccc23)NC(=O)[C@H](CCCNC(=N)N)NC(=O)[C@@H](Cc2ccccc2)NC(=O)[C@H](Cc2c[nH]cn2)NC1=O` (some centres unmarked) [lutetium-177 labelled], the tumour-to-tissue ratio was 7.27 (C57 mice, tumour; 2 h; relative to: lung).
The Cmax of `Cc1cc(NC(=O)[C@H](O)c2cc(F)cc(F)c2)ccc1-c1cnc(N)c(C(=O)NC(C)C)c1` is reported as 1710 ng/mL (female nude mouse, plasma; oral, 10 mg/kg, single dose).
`C#CC1(NC(=O)C(CC(C)(C)F)NC(c2ccc(-c3ccc(S(C)(=O)=O)cc3)cc2)C(F)(F)F)CC1` (centres unmarked) — result for “cysteine adduct formation”: less than 1% (MES buffer; 100 µM, 23 h, pH 5.5, 37 °C, with: cysteine 10 mM).
With `O=C(C1CC1)N1CCC=C(c2cc3c(Nc4cc5ncsc5cc4F)ncnc3s2)C1` the oral bioavailability was 51.5% (BALB/c mouse).
For `CCCCN1C(=O)c2cccc3c(NCCCCCCN4CCOCC4)ccc(c23)C1=O`, “fluorescence quantum yield” read 1.03 (ethyl acetate).
The urine volume of `CC(C)[C@H](NC(=O)[C@H](Cc1c[nH]c2ccccc12)NC(=O)[C@H](CCCNC(=N)N)NC(=O)[C@H](CCCNC(=N)N)NC(=O)[C@@H](NC(=O)[C@@H](NC(=O)[C@H](CCCNC(=N)N)NC(=O)[C@@H](NC(=O)[C@@H](NC(=O)[C@H](CCCNC(=N)N)NC(=O)[C@H](CCCNC(=N)N)NC(=O)[C@@H](NC(=O)[C@H](Cc1c[nH]c2ccccc12)NC(=O)[C@H](CCCNC(=N)N)NC(=O)[C@H](CCCNC(=N)N)NC(=O)[C@@H](NC(=O)[C@H](CCCNC(=N)N)NC(=O)[C@H](CCCNC(=N)N)NC(=O)[C@@H](NC(=O)[C@H](Cc1c[nH]c2ccccc12)NC(=O)[C@H](CCCNC(=N)N)NC(=O)[C@@H](N)CCCNC(=N)N)C(C)C)C(C)C)C(C)C)C(C)C)C(C)C)C(C)C)C(C)C)C(=O)N[C@@H](CCCNC(=N)N)C(=O)N[C@@H](CCCNC(=N)N)C(=O)O` is reported as 160 µL/day/g body weight (CD1 mouse, urine; intravenous, 15 mg/kg, 6 to 24 h, [14C]-labelled compound).
The dose-normalised AUC(0-t) of `Cc1nn(-c2nc3c(F)cc(F)cc3s2)c(O)c1C(c1ccc(C(F)(F)F)cc1)c1c(C)nn(-c2nc3c(F)cc(F)cc3s2)c1O` is reported as 7210 kg·ng·h/mL/mg and 9350 kg·ng·h/mL/mg and 17600 kg·ng·h/mL/mg (male ICR mouse, plasma; intravenous, 5 mg/kg).
For `CCCCCCCOc1ccc(CC[C@](N)(CO)COP(=O)(O)O)cc1C(F)(F)F`, the Tmax was 12 h (healthy human males, plasma; oral, 0.25 mg, day 1, median).
`CC(=O)N[C@H](CC(=O)O)C(=O)N[C@H](Cc1c[nH]c2ccccc12)C(=O)N[C@H](Cc1ccccc1)C(=O)N[C@H](CCCCN)C(=O)N[C@H](C)C(=O)N[C@H](Cc1ccccc1)C(=O)N[C@H](Cc1ccc(O)cc1)C(=O)N[C@H](CC(=O)O)C(=O)N[C@H](CCCCN)C(=O)N[C@@H](C(=O)N[C@H](C)C(=O)N[C@H](CCC(=O)O)C(=O)N[C@H](CCCCN)C(=O)N[C@H](Cc1ccccc1)C(=O)N[C@H](CCCCN)C(=O)N[C@H](CCC(=O)O)C(=O)N[C@H](C)C(=O)N[C@H](Cc1ccccc1)C(N)=O)C(C)C` has a Cmax of 5.4 ng/mL (high-risk statin-treated men with CHD, plasma; oral, dose not given, median, doses pooled).
For `CCCC[C@H](OC(C)=O)c1ccccc1C(=O)O`, the Vss was 2.5 ± 1.23 L/kg (Sprague-Dawley rats, both sexes, whole blood; intravenous, 5 mg/kg single dose).
`C=CC(=O)Nc1cc(Nc2nccc(-c3cn(C)c4ccccc34)n2)c(OC)cc1N(C)CCNC` has a recovery of 50.6% (storage stability; human plasma; 30 d, on ice, LLOQ level).
Under “total absorbed dose”, `CN1C(=O)[C@@H](Cc2ccc(O)c(I)c2)NC(=O)CNC(=O)[C@H](Cc2ccc3ccccc3c2)NC(=O)[C@H](CCCNC(=N)N)NC(=O)[C@H]1CCCNC(=O)c1ccc(CNC(=O)CN2CCN(CC(=O)O)CCN(CC(=O)O)CCN(CC(=O)O)CC2)cc1` [lutetium-177 labelled] is recorded as 0.099 mGy/MBq (2; human, extrapolated from mouse, red marrow).
